Published values gathered from unrelated publications.
Numbered parts are unrelated; each lists some results of a single study. Positions count from the first letter of the parent shown.

Block 1 — method: protein-binding microarray; molecule type: double-stranded DNA, one strand shown; medium: in vitro; concentration: 2200 nM top; notes: 60-bp whole probe; added: salmon DNA 0.4 mg/ml; reference: random background probes; reading: higher = stronger binding; all sequences stand within: GCCTAGCAC … GTCTTGATTCGCTTGACGCTGCTG
Target: Interferon regulatory factor 7, full length, phosphomimetic (IRF7, Homo sapiens, UniProt Q92985, residues 1-503, S471D/S472D/S475D/S476D/S477D/S483D/S484D/S487D)
Target sequence (chain): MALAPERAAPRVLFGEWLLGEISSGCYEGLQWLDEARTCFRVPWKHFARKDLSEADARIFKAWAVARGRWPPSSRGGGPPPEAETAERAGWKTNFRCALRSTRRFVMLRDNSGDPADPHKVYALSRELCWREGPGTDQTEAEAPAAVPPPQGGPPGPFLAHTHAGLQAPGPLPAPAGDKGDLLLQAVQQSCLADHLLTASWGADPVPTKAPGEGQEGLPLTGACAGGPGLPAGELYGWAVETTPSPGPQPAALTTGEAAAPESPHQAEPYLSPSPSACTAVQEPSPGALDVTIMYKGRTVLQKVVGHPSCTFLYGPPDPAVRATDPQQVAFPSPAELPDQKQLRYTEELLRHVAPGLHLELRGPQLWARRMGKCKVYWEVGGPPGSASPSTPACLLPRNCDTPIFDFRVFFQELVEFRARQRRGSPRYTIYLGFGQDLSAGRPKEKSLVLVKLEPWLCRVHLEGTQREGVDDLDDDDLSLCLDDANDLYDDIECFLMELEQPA
| Sequence | fitted relative affinity |
| --- | --- |
| AACGGTTTCGACTATCGGGACGTGCTA | 3.73 z-score |
| TTTGGTTTCGGTCTCGGTTAGTGCTAG | 7.97 z-score |
| TGAGCTTACAATATAAAAGGGTGCTAG | -0.96 z-score |
| TTAGAACTGAGTATCAATTAGTGCTAG | -0.813 z-score |
| TTAAATATCGGGTTTCGATTAGTGCTA | 2.58 z-score |
| TTAGGCATCGGTATCGGTTAGTGCTAG | 0.197 z-score |
| TTAGATAGCAGTTTCGATTAGTGCTAG | 4.88 z-score |
| TCATTTTTTTTTTTGGAACTGTGCTAG | 1.67 z-score |
| GACTAACTGAGACTGGAGACGTGCTAG | -0.35 z-score |
| TTAGATATCAGTCTCGATTGGTGCTAG | 0.8 z-score |
| CTTTACATGGGTTTTCAGCTGGTGCTA | 0.768 z-score |
| TATGTTGTCCAGGCTGGTCTCGTGCTA | 0.667 z-score |
| TCAAGTAGCTTTCTGAGACTGTGCTAG | 0.384 z-score |
| TCATTTTTCTACTTCTGACTGTGCTAG | 3.62 z-score |
| GACGGTATCCTTTTCCTGGCGTGCTAG | 1.09 z-score |
| TTAGATTACGGGTATCGATTAGTGCTA | 0.4 z-score |

Block 2 — method: RNA Bind-n-Seq; molecule type: RNA; medium: in vitro; concentration: 1 µM; notes: whole 134-nt RNA, ends assumed; added: 150 mM KCl; reference: input library; reading: higher = stronger binding
Target: Ras GTPase-activating protein-binding protein 1, C-terminal RGG region (G3BP1, Homo sapiens, UniProt Q13283)
UniProt Q13283, sequence (whole entry, looked up): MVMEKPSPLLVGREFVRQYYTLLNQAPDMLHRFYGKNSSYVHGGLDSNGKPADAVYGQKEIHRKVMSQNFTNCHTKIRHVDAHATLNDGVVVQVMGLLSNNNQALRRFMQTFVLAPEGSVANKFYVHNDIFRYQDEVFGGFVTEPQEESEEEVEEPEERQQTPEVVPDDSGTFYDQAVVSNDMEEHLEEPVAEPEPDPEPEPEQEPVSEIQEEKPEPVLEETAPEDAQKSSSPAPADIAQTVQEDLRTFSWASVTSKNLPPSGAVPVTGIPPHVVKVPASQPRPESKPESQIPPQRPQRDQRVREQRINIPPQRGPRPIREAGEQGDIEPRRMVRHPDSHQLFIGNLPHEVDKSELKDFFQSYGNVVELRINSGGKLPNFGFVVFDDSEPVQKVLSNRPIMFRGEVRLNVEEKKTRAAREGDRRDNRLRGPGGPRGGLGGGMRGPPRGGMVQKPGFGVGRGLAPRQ
All sequences stand within: GGGAGUUCUACAGUCCGACGAUC … UGGAAUUCUCGGGUGUCAAGG
| Sequence | log2 enrichment |
| --- | --- |
| ACCAUGCAGGUGGGCAUCUUUGGGAAGUGGGGCAAGGUGGGGAUAGGGAGGGGGGUAACACUUUGGGAACAGGUGGUCCCAGGUCGUUUC | -0.468 |
| CACAGACAACACGCACCCGCACAGACACAGAGGGAAGGGGUUGGGAUGGGGACAGGGUGCACAGCAGGGCGGGGUAGGACCCCAGCCCCU | -0.347 |
| ACCAUGCAGGUGGGCAUCUUUGGGAAGUGGGGCAAGAGGGGGAUAGGGAGGGGGGUAACACUUUGGGAACAGGUGGUCCCAGGUCGUUUC | -0.894 |
| CUCAAGUCCUGUGCUACACAUCGUAUGUACCGAAUCGGGAAGGGGAAGGAAGGAAAGUAUUAUGUUACGCCGUUCGGAUCUGCACUUCCA | -1.27 |
| ACCAUGCAGGUGGGCAUCUUUGGGAAGUGGGGCAAGGGGGGGAUAGGGAGGGGGGUAACACUUUGCGAACAGGUGGUCCCAGGUCGUUUC | 2.26 |
| ACCAUGCAGGUGGGCAUCUUUGGGAAGUGGGGCAAGGGGGGGAUAGGGAGGGGGAAAACACUUUGGGAACAGGUGGUCCCAGGUCGUUUC | -1 |
| UUCAAAACAGAAUCCUUCCAGUCCUCUUCAGCGUUUAAUUCCAGGCUCAAACUUGGACAGUGAACCCAGAAUUCAAACAGAUAUACUAAA | -0.215 |
| UCAAGUCCUGUGCUACACAUCGUAUGUACCGAAUCGGGUUUGGGGUUUGGUUUGGAAAGUAUUAUGUUACGCCGUUCGGAUCUGCACUUC | -0.913 |
| ACCAUGCAGGUGGGCAUCUUUGGGAAGUGGGGCAAGUGGGGGAUAGGGAGGGGGGUAACACUUUGGGAACAGGUGGUCCCAGGUCGUUUC | -1.09 |
| UGGCCCUGGUGGCAUGCGGGGAGGAAGAGGUGGCCUCAUGGAUCGUGGUGGUCCCGGUGGAAUGUUCAGAGGUGGCCGUGGAGGAGACAG | 3.44 |
| GUCCUGUGCUACACAUCGUAUGUACCGAAUCGGGUUUUUUUGGGUUUGGGUUUUUGGGAAAGUAUUAUGUUACGCCGUUCGGAUCUGCAC | 0.321 |
| UAGUUUAUGCCAACGUGACUUCAUUCAUACAGAUGAACCAAGGAUCGGGAUAGCAGUAUAAAAUUAGAAUCAAGACAGCUGACUGCUCAG | -2.6 |
| UCCUGUGCUACACAUCGUAUGUACCGAAUCGGCCCCCCGGGCCCCCCGGGCCCCCCGGGAAAGUAUUAUGUUACGCCGUUCGGAUCUGCA | -1.56 |

Block 3 — method: competition protein-binding microarray; molecule type: double-stranded DNA, one strand shown; medium: in vitro; concentration: 2 µM; added: Cbf1 competitor, 0.05 µM; reading: higher = stronger binding; all sequences stand within: … GTCTTGATTCGCTTGACGCTGCTG
Target: Phosphate system positive regulatory protein PHO4, full length, GST-tagged (PHO4, Saccharomyces cerevisiae, UniProt P07270, residues 1-312)
Notes: whole 60-bp probe, lowest competitor level
Target sequence (chain): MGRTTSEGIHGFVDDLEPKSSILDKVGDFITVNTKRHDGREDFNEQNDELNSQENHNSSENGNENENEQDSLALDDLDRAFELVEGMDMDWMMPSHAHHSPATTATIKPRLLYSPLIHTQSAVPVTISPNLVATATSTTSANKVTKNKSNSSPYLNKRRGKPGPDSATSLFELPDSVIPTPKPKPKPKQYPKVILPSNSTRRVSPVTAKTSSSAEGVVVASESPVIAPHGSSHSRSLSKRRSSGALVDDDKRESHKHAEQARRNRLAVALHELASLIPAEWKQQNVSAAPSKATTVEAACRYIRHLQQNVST
| Sequence | fluorescence intensity |
| --- | --- |
| GTCTTGTCTCATTGGACCGTGGGTGTCCCCACTTCA | 8220 a.u. |
| GTCTTGTCTCATTGTAGAGTGGGTGTCCCCACTTCA | 5050 a.u. |
| ATCATCATACATTTGCACGTGGCCGTTACATTTTTC | 19700 a.u. |
| CGGGGTTAAGTTTGTCACCTGACTTGCTTGCAGCAG | 3440 a.u. |
| GAAGGAGGACTTTCCCTTGTGACAGTCTTGACTTTT | 3320 a.u. |
| ATCGTCAAAAGAGTAAACGTGCCGAGCAAAATCATC | 14300 a.u. |
| CTGTCGAAGAGTAGTCACCTGTTCCAACTAAGATAG | 5770 a.u. |
| CTTCCTGTGGATTTTCACGGGCCGTCCCAAGCGCAA | 3910 a.u. |
| CTTCTGTAAATTTGACTTGTGGGTGGACGCGCCCCG | 4670 a.u. |
| CTCCACTTACTTGTAATACTTTATTATTTTTCACTT | 4400 a.u. |
| AAATTACTAAGTTGTATAGTGGGTGACGCCGTATGA | 4470 a.u. |
| AAATTACTAAGTTTTCACGTGTTGTACCCCGTATGA | 15100 a.u. |
| AACTGTGAAAGGTTCCACGTGGCCGGGTGAGATTCG | 15300 a.u. |
| TACTTTTGATGACTGTTTCTCAACTCCATGTCATTC | 3450 a.u. |
| AGCGAGCCGGCGGCAATCGTGGGACGCGATGGCACT | 6080 a.u. |
| CGGGGTTAAGTTTGAGGGGTGGGTGGCTTGCAGCAG | 5580 a.u. |

Block 4 — method: RNA Bind-n-Seq; molecule type: RNA; medium: in vitro; concentration: 365 nM; reference: no-protein control; reading: higher = stronger binding
Target: RNA binding protein fox-1 homolog 2, RRM domain, GST-SBP tag (RBFOX2, Homo sapiens, UniProt O43251-10, residues 100-194)
Notes: natural RNA segment, single round, ends assumed
All sequences stand within: GGGAGUUCUACAGUCCGACGAUC … UGGAAUUCUCGGGUGCCAA
Target sequence (chain): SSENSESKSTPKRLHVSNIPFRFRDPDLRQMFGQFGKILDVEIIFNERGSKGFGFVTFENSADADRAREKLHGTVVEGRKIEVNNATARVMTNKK
| Sequence | RBNS enrichment (R) |
| --- | --- |
| AUUUUUAAGCUUCUACAGAUAUGGUCCUAGAGACUGGGGUCCUCAGACACUCCCGCUGUAUGUGGUGAGCUUGGCUGGAAACUUGCCAUAGCCAGGACUGAGGGGCUGGC | 1.83 |
| GGCACCACACUACAUCCCCAUGCCCCUGUGGAAGUCUGUUACUGCAGCACUGUGCCUGCCAGAGUUCCCACAGCACCCGAGGGAGAAGGUGAUGGCUGUCUCUCUCUAGU | 0.797 |
| UGCUCCUUCUGUUCCUCAGGAACUAACGAGAACUGUCCUCCAAGGCAGGGGGCAGGGUGGGGCCUGAGAGUGGCUUCAAGUCGGCAGGGUUCUGCUGCCCCUGAUGCUCA | 0.228 |
| GAUGAGUUAAAGUUGUAUUCUGAAAUCAUGAAGCCAGAGCCUGUGCCAGACCUUCUGCUACCUCUCAUAGAAUUGCUCUGUAAUUCUAAAUUUAAAAUUAGAAGUAGAGA | 0.299 |
| GCCUGCUCUUUUUGAAGCAGCUGAUUGGAGAGUAAAGAUUUUCAUUCAAUAAAGCUAAACCUCAGGGUCCAGUUUCUUGUGUUCUUGAGAAGCCAGGCAACUGCUUGGAG | 0.2 |
| CUGUUAUUUAUGGUGUGACCCCCUGGAGGUGCCCUCGGCCCACCGGGGCUAUUUAUUGUUUAAUUUAUUUGUUGAGGUUAUUUCCUCUGAGCAGUCUGCCUCUCCCAAGC | 0.333 |
| UUGAACACGUGCACACAUGAGUUCCAAUUUUGCUUCCUUUUGUUAUAAUGUUUCAACAAACAGAAGGUAGACAACAGGUUGUUGGUGGACAUGCUUGGUGCUUUUGGUAU | 0.4 |
| UGGGACACCAGUCUUCGGUGUGUGGAAUGUGGUAUUUUCCCGCGUGGAGGUGUGCUUUCUCACAACGGGGUGUGUUUUCCCAUGUGCAGGGUGAGGUUUUUUUUUGCCAC | 0.483 |
| GUUCAAUUUCAGCAUAUUUUAGGGUGAGUAAUCAAAAAUGUGAAUUUGCCUUUGAUUUCCUACCACUGUCUGAGCUAUCAUAAAGCAUUCUCUUUAGUUGUGAUUUGAUU | 1.05 |
| UCCAGCCUUGCAAGAAGGCUAUUCACAAUUAGGCCUGGCUGCUUCUCUCAUUUUUUUCCUCCCAGUUUCCAAACAAGCCCUCAGUGAACAUCAUUGAAGCGUGACUGCCU | 0.294 |
| AAUUAAGGACUGAGAAAUGACCAUAUCUUAAACUAUCUACGACAAAGUGAACUUAAAAGGACAUGCCCACUGAAUUCAGGUCCUUUGAGUAAAAAAAAAAUCUUCUGCUG | 0.623 |
| UUUCUCUCCCGUCUCAGUGGCUUCUCUGAGGUGCUGUACACGCGCGUUAACCUGUUCCCUUCUCUAUCCUUCCCCGUGGUACUGAGCUCACGUGGACUCCCAGUGCGAAG | 0.717 |

Block 5 — target: CCNE1, cyclin fold, Cln2 fusion (human); method: yeast growth competition, sequencing; medium: yeast; notes: strong parent motif; reference: not given; reading: higher = stronger binding
Starting sequence: SCAPER docking peptide (human); SNARRSLNFGGST
| Substitution | normalised enrichment score |
| --- | --- |
| SNARRSLAFGGST [N8A] | 0.222 |
| SNARRSLNFGGSA [T13A] | 0.505 |
| SNARTSLNFGGST [R5T] | 0.278 |
| SLARRSLNFGGST [N2L] | 0.483 |
| STARRSLNFGGST [N2T] | 1.13 |
| SNARRSLNEGGST [F9E] | -0.233 |
| SNARRSLNFGFST [G11F] | 1.02 |
| SNARRSLNSGGST [F9S] | -0.421 |
| SNARRHLNFGGST [S6H] | 1.68 |
| SNARRSLNFGGVT [S12V] | 0.5 |
| SNARRSLNFGAST [G11A] | 1.06 |
| SNARRSLNFGGSQ [T13Q] | 0.922 |
| SNARRSLLFGGST [N8L] | -0.0582 |
| SNARRSLNFGRST [G11R] | -0.0761 |

For quick reference, copied from above (block 3):
| Sequence | fluorescence intensity |
| --- | --- |
| CTCCACTTACTTGTAATACTTTATTATTTTTCACTT | 4400 a.u. |
| CGGGGTTAAGTTTGAGGGGTGGGTGGCTTGCAGCAG | 5580 a.u. |
| ATCGTCAAAAGAGTAAACGTGCCGAGCAAAATCATC | 14300 a.u. |
| TACTTTTGATGACTGTTTCTCAACTCCATGTCATTC | 3450 a.u. |
| GTCTTGTCTCATTGTAGAGTGGGTGTCCCCACTTCA | 5050 a.u. |
| AGCGAGCCGGCGGCAATCGTGGGACGCGATGGCACT | 6080 a.u. |
| GAAGGAGGACTTTCCCTTGTGACAGTCTTGACTTTT | 3320 a.u. |
